Experimental data collected from several papers.
Numbered parts are unrelated; each lists some results of a single study.

Study 1
Target: Sal-like protein 4, full length isoform B (SALL4, Homo sapiens, UniProt Q9UJQ4-2, residues 1-616)
Method: universal PBM
Molecule type: double-stranded DNA, one strand shown
Matrix: in vitro
Tested at: not given
Notes: 8-mer, flanks averaged, mean of replicates
Reading: higher = stronger binding
Construct (chain): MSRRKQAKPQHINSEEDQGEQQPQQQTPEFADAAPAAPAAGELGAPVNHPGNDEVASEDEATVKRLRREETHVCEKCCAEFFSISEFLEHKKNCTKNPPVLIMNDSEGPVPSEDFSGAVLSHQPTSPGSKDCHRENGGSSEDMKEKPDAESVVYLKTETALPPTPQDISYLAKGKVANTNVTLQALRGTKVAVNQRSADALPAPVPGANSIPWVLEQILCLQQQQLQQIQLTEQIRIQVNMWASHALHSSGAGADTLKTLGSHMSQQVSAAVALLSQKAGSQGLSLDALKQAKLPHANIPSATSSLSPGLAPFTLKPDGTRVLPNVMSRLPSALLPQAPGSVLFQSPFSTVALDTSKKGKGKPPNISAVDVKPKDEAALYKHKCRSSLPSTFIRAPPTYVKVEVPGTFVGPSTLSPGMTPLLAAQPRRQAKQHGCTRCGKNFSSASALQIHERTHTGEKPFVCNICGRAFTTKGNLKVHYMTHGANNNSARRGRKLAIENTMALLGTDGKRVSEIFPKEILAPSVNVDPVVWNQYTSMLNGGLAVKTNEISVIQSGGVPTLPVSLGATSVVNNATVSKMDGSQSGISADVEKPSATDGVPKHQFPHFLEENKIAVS
| Sequence | E-score |
| --- | --- |
| AGAGGTCG | -0.0956 |
| ACGGGTCT | -0.298 |
| GATAGCAC | -0.0552 |
| CACGATAC | 0.0791 |
| AAGATGTG | 0.0707 |
| CTAGAGAG | -0.129 |
| AGGAGACA | 0.0226 |
| ATTAAAGA | 0.353 |
| ACGGCCTG | -0.295 |
| AAGTACAT | 0.22 |
| AACGCCCC | -0.281 |
| ATGAAGTA | 0.219 |
| CCAAAAAG | 0.19 |
| CCAGTGAG | -0.293 |
| AGTGGCAT | -0.0024 |
| AAGTTAGT | 0.12 |
| CCTCCTTC | -0.195 |
| AAACTCCG | -0.0465 |
| GGTCAGTA | -0.0367 |
| CTTCGACC | -0.254 |
| GCAAAGCA | -0.139 |
| ACGCATAG | -0.0442 |

Study 2
Target: Interferon regulatory factor 3, full length, phosphomimetic (IRF3, Homo sapiens, UniProt Q14653, residues 1-427, S386D/S396D/S398D/S402D/T404D/S405D)
Method: protein-binding microarray
Molecule type: double-stranded DNA, one strand shown
Matrix: in vitro
Tested at: 2540 nM top
Notes: 60-bp whole probe
With: salmon DNA 0.4 mg/ml
Reference: random background probes
Reading: higher = stronger binding
All sequences stand within: GCCTAGCAC … GTCTTGATTCGCTTGACGCTGCTG
Construct (chain): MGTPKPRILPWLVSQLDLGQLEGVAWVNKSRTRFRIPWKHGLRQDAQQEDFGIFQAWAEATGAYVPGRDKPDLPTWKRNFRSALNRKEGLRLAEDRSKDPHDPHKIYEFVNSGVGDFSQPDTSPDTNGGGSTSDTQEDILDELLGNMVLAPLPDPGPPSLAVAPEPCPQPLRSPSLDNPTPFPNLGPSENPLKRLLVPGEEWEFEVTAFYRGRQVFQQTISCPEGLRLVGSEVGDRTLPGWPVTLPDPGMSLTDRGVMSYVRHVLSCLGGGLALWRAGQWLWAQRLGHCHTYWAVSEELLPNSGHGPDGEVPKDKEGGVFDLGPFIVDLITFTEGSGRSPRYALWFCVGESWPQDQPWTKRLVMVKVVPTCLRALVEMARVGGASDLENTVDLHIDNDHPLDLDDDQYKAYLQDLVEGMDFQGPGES
| Sequence | fitted relative affinity [z-score] |
| --- | --- |
| CTACGTCTGATTTTGCTTTCGTGCTAG | 0.502 |
| GACGGTATCGACACAGGGGACGTGCTA | 0.537 |
| TTAGAATTGAGTTTCGATTAGTGCTAG | 2.81 |
| GACGAACTGGAGACTGGAGACGTGCTA | -0.292 |
| GCCATTATGAGTCTTGAAGAGTGCTAG | -0.0622 |
| TCATTTTTTTGTATTTTACTGTGCTAG | 1.12 |
| TCTCTTTCCTTACTTCCCAATGTGCTA | 5.05 |
| TTAGGAGTGGGGACTGGGTTAGTGCTA | -1.04 |
| TTAGAACGGGGGTTTCGATTAGTGCTA | 1.84 |
| GACGGTATCGACACTGAGGACGTGCTA | 0.736 |
| GACGGTTCAGGTTTCGGGACGTGCTAG | 2.65 |
| TTAGATATCAGACTGGATAAGTGCTAG | 0.172 |
| GACGAACTGGGGTCTCGAGACGTGCTA | -0.58 |
| GACGGACTGTGTCTCGGGACGTGCTAG | -0.49 |
| CCACTTTCCATTTCTGTTTTTGTGCTA | 8.46 |
| TCAGCTTTGCCTTCAGCACTGTGCTAG | -0.185 |
| CTAGGTATCGGACTGGGTTAGTGCTAG | 1.24 |
| TTAGGACTGGGTTTCGGTCAGTGCTAG | 1.89 |
| TCAATTGTGGGTCTTGCACTGTGCTAG | -0.609 |
| TTAGGTTTCCAACTGCTTTAGTGCTAG | 4.58 |
| TCATGCTTTCTTTTTGCACTGTGCTAG | 1.11 |
| TTTTTTTTCTGATCCATTTTGTGCTAG | 3.01 |

Study 3
Target: Ras GTPase-activating protein-binding protein 1, full length (G3BP1, Homo sapiens, UniProt Q13283)
Chain of UniProt Q13283 (whole entry, looked up): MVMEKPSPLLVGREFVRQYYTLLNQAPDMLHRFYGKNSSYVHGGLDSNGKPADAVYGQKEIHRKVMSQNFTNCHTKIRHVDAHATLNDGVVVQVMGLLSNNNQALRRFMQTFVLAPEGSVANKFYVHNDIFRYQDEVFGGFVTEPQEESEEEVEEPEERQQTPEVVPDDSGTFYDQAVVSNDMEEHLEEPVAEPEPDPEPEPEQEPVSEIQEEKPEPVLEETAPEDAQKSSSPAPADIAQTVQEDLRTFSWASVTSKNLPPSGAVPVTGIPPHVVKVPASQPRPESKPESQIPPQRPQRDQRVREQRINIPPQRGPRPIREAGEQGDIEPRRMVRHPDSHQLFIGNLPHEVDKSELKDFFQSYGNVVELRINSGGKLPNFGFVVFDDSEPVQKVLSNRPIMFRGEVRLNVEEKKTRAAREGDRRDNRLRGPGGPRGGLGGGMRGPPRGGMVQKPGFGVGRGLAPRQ
Method: RNA Bind-n-Seq
Molecule type: RNA
Matrix: in vitro
Tested at: 200 nM
Notes: whole 134-nt RNA, ends assumed
With: 150 mM LiCl
Reference: input library
Reading: higher = stronger binding
All molecules: 7-deaza-guanosine replaces G
All sequences stand within: GGGAGUUCUACAGUCCGACGAUC … UGGAAUUCUCGGGUGUCAAGG
| Sequence | log2 enrichment |
| --- | --- |
| UGGGAGGUGGAUUUUGUUUAUUUUUUUAGCUCAUUUCCAGGGGUGUGAAUUUUUUUUUAAUAUGUGUCAUGAAUAAAGUUGUUUUUGAAA | -0.599 |
| UAACUUUAGAGGAGGAUCUGAGGGAUAUGGCAGUGGACGUGGAUUUGGGGAUGGCUAUAAUGGGUAUGGAGGAGGACCUGGAGGUGGCAA | -0.178 |
| UGCGGGCGGCUGAGACGCCGCCUGCCUGGCACCUAGGAGCGCAGCGGAGCCCCGACACCGCCGCCGCCGCCAUGGAGUCCGAGACCGAAC | 0.452 |
| AAGUCCUGUGCUACACAUCGUAUGUACCGAAUCGGGGUGGGGUGGGGUUUUUGGGGAAAGUAUUAUGUUACGCCGUUCGGAUCUGCACUU | -0.497 |
| GCAGGAAGUAAAAACAAAUGGAAAUGCUUCGGAUAGUGGCAGGGGUGGGGGGUGCUAAGGAAAGGGUGGGAUGGGAGUGGGUAAAGAGUU | -0.104 |
| UCAAGUCCUGUGCUACACAUCGUAUGUACCGAAUCGGAAAAAGGUGGUUUUUGGAAAGUAUUAUGUUACGCCGUUCGGAUCUGCACUUCC | -0.15 |
| UGGGAGGUGGAUUUUGUUUAUUUUUUUAGCUCAUUUCCAGGGGUGGGAAUUUUAUUUUAAUAUGUGUCAUGAAUAAAGUUGUUUUUGAAA | -0.12 |
| UGGCCCUGGUGGCAUGCGGGGAGGAAGAGGUGGCCUCAUGGAUCGUGGUGGUCCCGGUGGAAUGUUCAGAGGUUGCCGUGGUGGAGACAG | 0.285 |
| CCUCAAGUCCUGUGCUACACAUCGUAUGUACCGAAUCGGGUGGGAGGGAGGGAAAGUAUUAUGUUACGCCGUUCGGAUCUGCACUUCCAG | 0.021 |
| AGUCCUGUGCUACACAUCGUAUGUACCGAAUCGGGGAGGGGAAAAAAAGGGGUGGGGAAAGUAUUAUGUUACGCCGUUCGGAUCUGCACU | 0.205 |
| CAAGUCCUGUGCUACACAUCGUAUGUACCGAAUCGGGGAAAGGGGAAAGGGAAAGGAAAGUAUUAUGUUACGCCGUUCGGAUCUGCACUU | -0.37 |

Study 4
Target: RNA binding protein fox-1 homolog 2, RRM domain, GST-SBP tag (RBFOX2, Homo sapiens, UniProt O43251-10, residues 100-194)
Method: RNA Bind-n-Seq
Molecule type: RNA
Matrix: in vitro
Tested at: 365 nM
Notes: natural RNA segment, single round, ends assumed
Reference: no-protein control
Reading: higher = stronger binding
All sequences stand within: GGGAGUUCUACAGUCCGACGAUC … UGGAAUUCUCGGGUGCCAA
Residues (chain): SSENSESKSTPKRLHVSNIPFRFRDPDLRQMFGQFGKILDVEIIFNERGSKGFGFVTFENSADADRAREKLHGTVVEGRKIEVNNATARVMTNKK
| Sequence | RBNS enrichment (R) |
| --- | --- |
| CCACAGGUUUUUUGAGCUGGUGUGGAUUAGUUUAACUCUUGUAUUCAACCAUUAGUGCUACCACCUUCUCACAUUACAAUACAAUUACUGGAAGCAAGUACUGCAUUUCC | 0.401 |
| CAGAUUUUUUACAGCUGCCUGCAGUACUUUACCUCCUAUCAGAAGUUUCUCAGCUCCCAAGGCUCUGAGCAAAUGUGGCUCCUGGGGGUUCUUUCUUCCUCUGCUGAAGG | 0.287 |
| UUUAUUUGGUUUUAUCUGAGAUAACUUAUGUUCAAGGUGAGAAUAAGAAAUAGCCAACUAGUUAAAAUGUAUGAAAAGAAAACUUUCCCCUGCUGUAUUUGUUGUGUAAC | 0.527 |
| ACUUGGCUGCACCCCACUGUCCCUUGCAAGACAGGUUCUGGAGCCAGGAGCAACUGUCCAGCCCUCCAGAAGAGACAGCAAGCAGCCCCCCUACCCACUCUGGCCUCCCC | 0.418 |
| UCCCUUAGCCCCAGUCCCACAGAUCAGGUGGAGACUGGAGUGACAGAGGGCGACUGUACCAAGGCCACACCAGCUGACCAGCACACCUCUAUCCUUUUGAGCUCUUCUGU | 0.247 |
| UCCUAAGUCCAAUUGUUGAAAUUGGAUCAAAGUAGAAUUGUCAGAGGAACACAACAUUAAGCCAUUAGAAUAGAAGAGCUGUUGUCUCCUGUUUCUCUAACACUAACAUG | 0.292 |
| UGUAAUGUCAGCUGGCAUCAUACAAAGAGCAGGAGAAGCAAACACCCAGAACUCUUUUGCUGGUCAGAGAUUCCCUGAGUGUCUGUCCUCACCCAAGCCUGCUCUGUGUC | 0.262 |
| AAAUAUUAGCACAAAACACUAAAAUAGUGUUAACAAAAGGAGAUAUUGAGCCAGGCAGUGGUGACACGCACACCUUUAAUCCUGGCAUUUGGGAGGUAGAGGCAGUCAGA | 0.685 |
| CUUCUCUUUUCCUCGCAGAUGAUAAAAGGAAUCUGGCAUUCUACACCUGGACCAUUUGAUUGUUUUAUUUUGGAAUUGGUGUAUAUCAUGAAGCCUUGCUGAACUAAGUU | 0.318 |
| AGGUUCCCAGGGUGUGGAUGCCAGCCUCCACCCAUGCACCUGGGUACUGGGGCACUGUUACCUCCAGAAGGCACUACUUCUAUCGUAGGGCGAGUCUAAUUGUUAGACAU | 0.417 |
| UUAAAAACAUGAUGGGCUGUUUUAAGACCAGAGUGGAAAUUCAUGAGAGGAACUAUACUACCAAAAGAGCCCAAAUGACCAAAUCCAUGGAUAAUUGCUUCACAGCCUUG | 0.432 |
| CCUGCUCCCCACUCCCUUUCCCCACUCCUUCUUUAUUGCACACAGGACACCAGUCUUCAAGGAAAGGGACUUUUUUCCAGUCUGCCAAUCAUAUUGGGAAAGUGCUAGCU | 0.906 |

Some of these lines once more (study 2):
| Sequence | fitted relative affinity [z-score] |
| --- | --- |
| GACGGTATCGACACTGAGGACGTGCTA | 0.736 |
| GACGGTTCAGGTTTCGGGACGTGCTAG | 2.65 |
| TTAGATATCAGACTGGATAAGTGCTAG | 0.172 |
| GACGAACTGGGGTCTCGAGACGTGCTA | -0.58 |
| GACGGACTGTGTCTCGGGACGTGCTAG | -0.49 |
| CCACTTTCCATTTCTGTTTTTGTGCTA | 8.46 |
| TCAGCTTTGCCTTCAGCACTGTGCTAG | -0.185 |
| CTAGGTATCGGACTGGGTTAGTGCTAG | 1.24 |
| TTAGGACTGGGTTTCGGTCAGTGCTAG | 1.89 |
| TCAATTGTGGGTCTTGCACTGTGCTAG | -0.609 |
